Experimental data pooled from the literature.
Numbers after ± are the reported error.
Cell line: Caco-2 monolayer

SMILES | test | conditions | how to read | measurement | result
COC(=O)N[C@H](C(=O)N[C@@H](Cc1ccccc1)[C@@H](O)CN(Cc1ccc(-c2ccccn2)cc1)NC(=O)[C@@H](NC(=O)OC)C(C)(C)C)C(C)(C)C |  | with: efflux inhibitor cocktail |  | Papp A-B | 72 ± 3.6 ×10⁻⁶ cm/s
C[C@H]1O[C@@H](O[C@H]2CC[C@@]3(C)[C@@H](CC[C@]4(C)[C@@H]3C=C[C@]35OC[C@@]6(CCC(C)(C)C[C@H]63)[C@@H](O)C[C@]54C)[C@]2(C)CO)[C@H](O)[C@@H](O[C@@H]2O[C@H](CO)[C@@H](O)[C@H](O)[C@H]2O)[C@H]1O | Caco-2 bidirectional transport | 10 µM, 3 h, 37 °C |  | recovery apical to basolateral | 70.3%
Cc1cc(O)c2c(c1)C(=O)c1cc(O)cc(O)c1C2=O |  | in Rhizoma extract, extract 0.025 mg/mL | baseline: Papp(B-A) over Papp(A-B) | efflux ratio | 1.51
CCCCCCC/C=C/C=C/C(=O)NCC(C)C |  | concentration not given, outcome: no effect, with: cichoric acid or Echinacea extract components |  | permeability | no effect
Cc1cc(O)c2c(c1)C(=O)c1cccc(O)c1C2=O |  | in Rhizoma extract, extract 0.025 mg/mL | baseline: Papp(B-A) over Papp(A-B) | efflux ratio | 2.07
C=C[C@@H]1C[C@]1(NC(=O)[C@@H]1C[C@@H](Oc2ncc(OC)c3ccc(Cl)cc23)CN1C(=O)[C@@H](NC(=O)OC(C)(C)C)C(C)(C)C)C(=O)NS(=O)(=O)C1CC1 |  | with: efflux inhibitor cocktail |  | Papp A-B | 48 ± 9.9 ×10⁻⁶ cm/s
CC[C@]1(O)C[C@@H]2CN(CCc3c([nH]c4ccccc34)[C@@](C(=O)OC)(c3cc4c(cc3OC)N(C)[C@H]3[C@@](O)(C(=O)OC)[C@H](OC(C)=O)[C@]5(CC)C=CCN6CC[C@]43[C@@H]65)C2)C1 | transwell permeability | 10 µM, with: verapamil | baseline: Papp B-A over Papp A-B | efflux ratio | 3
O=S1(=O)OC(c2ccc(O)cc2)(c2ccc(O)cc2)c2ccccc21 |  | 5 µg/mL, 60 min, apical to basolateral |  | Papp | ~4.5 ×10⁻⁶ cm/s
O=c1cc(-c2ccc(O)cc2)oc2c([C@@H]3O[C@H](CO)[C@@H](O)[C@H](O)[C@H]3O)c(O)cc(O)c12 | LC-MS/MS | 40 µM, 6 h |  | Papp (apical to basolateral) | 38.5 ×10⁻⁶ cm/s

Excerpt of the above:
SMILES | test | conditions | how to read | measurement | result
CC[C@]1(O)C[C@@H]2CN(CCc3c([nH]c4ccccc34)[C@@](C(=O)OC)(c3cc4c(cc3OC)N(C)[C@H]3[C@@](O)(C(=O)OC)[C@H](OC(C)=O)[C@]5(CC)C=CCN6CC[C@]43[C@@H]65)C2)C1 | transwell permeability | 10 µM, with: verapamil | baseline: Papp B-A over Papp A-B | efflux ratio | 3
